Published values pooled from the literature.
Lines come from different studies, so protocols differ. “And” joins repeats or separate records; there may be more than shown. ± gives the spread as reported.

For O=C(N/N=C/c1cc[n+](Cc2ccccc2)c2ccccc12)C(=O)N/N=C/c1cc[n+](Cc2ccccc2)c2ccccc12, the ΔTm was 8.7 ± 0.8 °C (telomeric G4 DNA hybrid-2; FRET melting; 1 µM, DNA 0.2 µM).
C=CC(=O)N1[C@@H](c2ccc3c(c2)OCO3)c2[nH]c3ccccc3c2C[C@H]1C(=O)N1CCN(C)CC1: “log2 fold change” 0.14 (CCNE1 WT-3xFLAG:CDK2 complex; co-IP TMT proteomics, measured: CKS2; HEK-293T; 20 µM, 6 h; baseline: DMSO).
For C[n+]1cccc2cc(/C=N/NC(=O)c3cncc(C(=O)N/N=C/c4ccc5c(ccc[n+]5C)c4)n3)ccc21, the ΔTm was 20.7 ± 1 °C (telomeric G4 DNA hybrid-2; FRET melting; 1 µM, DNA 0.2 µM).
For Fc1ccc(Nc2nc(NC3CCCCC3)c3ccccc3n2)cc1F, the maximal inhibition was 1.5% (β2AR/β1AR TM6 chimera; β-arrestin2 recruitment, antagonist, BRET; baseline: isoprenaline maximal response).
For C=C1CN(S(=O)(=O)c2ccc(C)cc2)CCCN(Cc2ccccc2)CCCN(S(=O)(=O)c2ccc(C)cc2)C1, “protein level ratio” read 3.27 (AP-2 complex subunit sigma; SILAC mass spectrometry; SUP-T1; 10 µM, 17 h; baseline: DMSO over compound (forward)).
O=C1c2ccc3c4ccc5c6c(ccc(c7ccc(c2c37)C(=O)N1CCN1CCCCC1)c64)C(=O)N(CCN1CCCCC1)C5=O gave an IC50 of 10700 ± 400 nM (telomerase; telomerase activity, inhibitor, TRAP; LNCaP; 48 h).
With CN1CCCNC(=O)CCC(=O)NCCCN(C)CCCNc2cccc3c2C(=O)c2cccc(c2C3=O)NCCC1 the ΔTm was 9 ± 2.8 °C (c-myc G-quadruplex DNA; DNA thermal stabilisation, CD melting; 4.5 µM, pH 7.4, together with: 1.5 µM DNA, 5 mM KCl).
O=S(=O)(NCc1ccncc1)c1ccc(C2CCCCC2)cc1 gave an EC50 of 9 nM (PU.1, mouse; reporter gene, inhibitor, luminescence; BV-2 PU.1 luciferase reporter; Asinex batch).
C=CC(=O)Nc1cccc(Cn2ncc3cnc(Nc4cnn(CCOC)c4)nc32)c1 — result for “percent of control”: 100% (TGFBR1 human; binding, KINOMEscan; 100 nM; lower = stronger binding).
C[n+]1cc(/C=N/NC(=O)N/N=C/c2cc3ccccc3[n+](C)c2)cc2ccccc21 gave a ΔTm of 5.9 ± 0.4 °C (telomeric G4 DNA hybrid-2; FRET melting; 1 µM, DNA 0.2 µM, together with: duplex DNA competitor 10 µM).
CC(C)(C)c1ccc(C(=O)N2Cc3cccnc3Nc3ccccc32)cc1 gave an IC50 of 1690 nM and 1460 nM and 1140 nM (IDH1 R132H; 2-HG production, RapidFire MS; MOG-G-UVW overexpressing IDH1 R132H).
For C[C@@H]1CN(c2cc(=O)n(C)c3ccc(C#N)nc23)[C@@H](C)CN1Cc1ccc(S(=O)(=O)n2cnc(C3CC3)n2)cc1, the IC50 was 340 nM (DGKα human; PA production, inhibitor, PILS-Nir1 biosensor; HEK293A FKBP-DGKα; together with: rapamycin).
For CC[n+]1cccc2cc(/C=N/NC(=O)c3cccc(C(=O)N/N=C/c4ccc5c(ccc[n+]5CC)c4)n3)ccc21, the ΔTm was 20.5 ± 1.3 °C (telomeric G4 DNA hybrid-2; FRET melting; 1 µM, DNA 0.2 µM, together with: duplex DNA competitor 10 µM).
Fc1ccc(Nc2nc(NC3CCCCC3)c3cc(Br)ccc3n2)cc1F gave a maximal inhibition of 0.7% (β2AR/β1AR TM6 chimera; β-arrestin2 recruitment, antagonist, BRET; baseline: isoprenaline maximal response).
CN1CCCNC(=O)c2cccc(c2)C(=O)NCCCN(C)CCCNc2cccc3c2C(=O)c2cccc(c2C3=O)NCCC1 gave a ΔTm of 13.9 ± 2.3 °C (c-myc G-quadruplex DNA; DNA thermal stabilisation, CD melting; 4.5 µM, pH 7.4, together with: 1.5 µM DNA, 5 mM KCl).
CN(C)CCOc1cc(NC(=O)c2cccc(C(=O)Nc3cc(OCCN(C)C)c4ccccc4n3)n2)nc2ccccc12 has a ΔTm of 10.3 ± 0.5 K (c-myc G-quadruplex DNA; FRET melting; 1 µM, pH 7.4, together with: 60 mM potassium).
With Nc1ncc(-c2cc(-c3cnn(CC(F)(F)F)c3)ncc2F)nc1C(=O)NC1CNCC(F)C1 (centres unmarked) the remaining binding was 100% (LYN; KINOMEscan; 1 µM; baseline: DMSO control).
O=C(N/N=C/c1ccc2c(ccc[n+]2Cc2ccccc2)c1)c1ccc2ccc(C(=O)N/N=C/c3ccc4c(ccc[n+]4Cc4ccccc4)c3)nc2n1 has a ΔTm of 20.5 ± 0.8 °C (telomeric G4 DNA hybrid-2; FRET melting; 1 µM, DNA 0.2 µM).
Under “log2 fold change”, c1ccc(-c2n[nH]cc2-c2ccnc3ccccc23)nc1 is recorded as 0.01 (SAK1 (Candida albicans); kinase binding, MIB/MS competition; Candida albicans lysate; 1 µM; baseline: DMSO).
`polymyxin B` gave an ED50 of 1.8 ± 0.23 µM (Escherichia coli lipopolysaccharide; binding, BODIPY-TR cadaverine displacement; 1 h, pH 7.4, 37 °C, together with: BODIPY-TR cadaverine 2.5 µM and LPS 50 µg/mL).
With O=C(Nc1cc(OCCN2CCCC2)c2ccccc2n1)c1cccc(C(=O)Nc2cc(OCCN3CCCC3)c3ccccc3n2)n1 the ΔTm was 8.4 ± 0.9 K (K-ras G-quadruplex DNA; FRET melting; 1 µM, pH 7.4, together with: 60 mM potassium).
C[n+]1ccc(/C=N/NC(=O)c2cccc(C(=O)N/N=C/c3cc[n+](C)c4ccccc34)n2)c2ccccc21 gave a ΔTm of 30.5 ± 1 °C (telomeric G4 DNA hybrid-2; FRET melting; 1 µM, DNA 0.2 µM, together with: duplex DNA competitor 10 µM).
The IC50 of Cc1ccc(S(=O)(=O)N/N=C/c2ccsc2B(O)O)cc1 is reported as over 100000 nM (human pancreatic chymotrypsin; enzyme activity, inhibitor).
NCCOc1cc(NC(=O)c2cc(OCc3cn([C@H]4O[C@@H](CO)[C@H](O)[C@@H](O)[C@@H]4O)nn3)cc(C(=O)Nc3cc(OCCN)c4ccccc4n3)n2)nc2ccccc12 gave a ΔTm of 10.4 ± 0.4 K (K-ras G-quadruplex DNA; FRET melting; 1 µM, pH 7.4, together with: 60 mM potassium).
C[n+]1cccc2cc(/C=N/NC(=O)N/N=C/c3ccc4c(ccc[n+]4C)c3)ccc21 gave a ΔTm of 8.9 ± 0.4 °C (telomeric G4 DNA hybrid-2; FRET melting; 1 µM, DNA 0.2 µM).
For O=C(O)C(Cc1c[nH]cn1)N1C(=O)c2ccc3c4ccc5c6c(ccc(c7ccc(c2c37)C1=O)c64)C(=O)N(CCN1CCCCC1)C5=O (centres unmarked), the IC50 was 9800 ± 400 nM (telomerase; telomerase activity, inhibitor, TRAP; PC-3; 48 h).
O=C(N/N=C/c1cc[n+](Cc2ccccc2)c2ccccc12)c1ccc2ccc(C(=O)N/N=C/c3cc[n+](Cc4ccccc4)c4ccccc34)nc2n1 gave a ΔTm of 21.3 ± 0.8 °C (telomeric G4 DNA hybrid-2; FRET melting; 1 µM, DNA 0.2 µM).
With Cn1ccc2cc(-n3c(=O)[nH]c4sc5c(c4c3=O)CCCC5)ccc21 the inhibition was -7% (rat rolipram binding site; radioligand binding; 10 µM, together with: rolipram).
NCCOc1cc(NC(=O)c2cc(Cl)cc(C(=O)Nc3cc(OCCN)c4ccccc4n3)n2)nc2ccccc12 has a ΔTm of 25.7 ± 0.7 K (K-ras G-quadruplex DNA; FRET melting; 1 µM, pH 7.4, together with: 60 mM potassium).

Excerpt of the above:
For CC[n+]1cccc2cc(/C=N/NC(=O)c3cccc(C(=O)N/N=C/c4ccc5c(ccc[n+]5CC)c4)n3)ccc21, the ΔTm was 20.5 ± 1.3 °C (telomeric G4 DNA hybrid-2; FRET melting; 1 µM, DNA 0.2 µM, together with: duplex DNA competitor 10 µM).
Fc1ccc(Nc2nc(NC3CCCCC3)c3cc(Br)ccc3n2)cc1F gave a maximal inhibition of 0.7% (β2AR/β1AR TM6 chimera; β-arrestin2 recruitment, antagonist, BRET; baseline: isoprenaline maximal response).
